Results from different studies.
Compare with care: the assays were run in different laboratories. “And” joins repeats or separate records; there may be more than shown. ± gives the spread as reported.

Compound | assay | test system | setting | fraction unbound
Cc1ccccc1CN1C(=O)C2=C(CCN(Cc3ccccc3)C2)N2CCN=C12 | equilibrium dialysis | plasma | 3.865 mg/L | 0.0412
Cc1cc(Nc2ccnc3ccc(-c4ccc(S(=O)(=O)N5CCOCC5)cc4)cc23)sn1 |  | human plasma |  | 0.007
N#C[C@@]12C[C@@H]1[C@@H](n1cnc3c(N[C@@H](C4CCC4)C4CC4)nc(I)nc31)[C@H](O)[C@@H]2O | plasma protein binding | rat plasma |  | 0.0163
C=CC(=O)Nc1cc(Nc2nccc(-c3cn(C)c4ccccc34)n2)c(OCC(F)(F)F)nc1N(C)CCN(C)C | rapid equilibrium dialysis | human plasma | 0.2 µg/mL | 0.79% and 0.93% and 0.99%
CC#Cc1cncc(-c2ccc3c(c2)[C@@]2(N=C(C)C(N)=N2)[C@]2(CC[C@H](OC)CC2)C3)c1 | equilibrium dialysis | human plasma | 6 h, pH 7.4 | 0.087
N#C[C@@]1(c2ccc3c(N)ncnn23)O[C@H](CO)[C@@H](O)[C@H]1O |  | monkey plasma | 10 µM | 0.811
COc1ccc(Nc2ccnc3ccc(-c4ccc(S(=O)(=O)N5CCOCC5)cc4)cc23)cc1C |  | human plasma |  | 0.005
O=C(NO)c1ccc(CN(c2cnccn2)c2cnccn2)cc1 |  | mouse plasma |  | 0.58
COc1ccc([C@@H]2Sc3ccccc3N(CCN(C)C)C(=O)[C@@H]2OC(C)=O)cc1 | rapid equilibrium dialysis | rat plasma | 2 µM, 6 h, pH 7.4 | 0.261
CC(O)C(C)n1ncn(-c2ccc(N3CCN(c4ccc(OCC5COC(Cn6cncn6)(c6ccc(Cl)cc6Cl)O5)cc4)CC3)cc2)c1=O (stereo not drawn) | equilibrium dialysis | human liver microsomes 0.025 mg/mL |  | 0.66 ± 0.12
CC(=O)CC(c1ccccc1)c1c(O)c2ccccc2oc1=O (stereo not drawn) | rapid equilibrium dialysis | human plasma | 2 µM, 4 h, pH 7.4, 37 °C | 0.0207
O=[N+]([O-])c1ccc(Nc2ncnc3ccc(-c4cccc(N5CCOCC5)c4)cc23)cc1C(F)(F)F |  | human plasma |  | < 0.0026
CC(C)N1Cc2cc(C(F)(F)F)ncc2C2=CN=C(NCc3c(F)ccc4c3CCO4)N3C=NC(C1=O)C23 (stereo not drawn) |  | rat plasma |  | 0.01
Cc1nnc(Nc2ccnc3ccc(-c4ccc(S(=O)(=O)N5CCOCC5)cc4)cc23)nc1C |  | human plasma |  | 0.024
C/C(O)=C(\C#N)C(=O)Nc1ccc(C(F)(F)F)cc1 | equilibrium dialysis | RPMI medium with 10% FBS | 24 h | 0.26 ± 0.016
CN1CCN(c2cccc(-c3ccc4ncnc(Nc5ncco5)c4c3)c2)CC1 |  | human plasma |  | 0.062
C[C@@H](O)[C@H](NC(=O)[C@H](Cc1ccc(O)cc1)NC(=O)[C@H](Cc1ccc(O)cc1)NC(=O)[C@H](CO)NC(=O)[C@H](CCCNC(=N)N)NC(=O)[C@H](Cc1c[nH]cn1)NC(=O)[C@@H](N)Cc1c[nH]c2ccccc12)C(=O)N[C@@H](Cc1c[nH]c2ccccc12)C(=O)N[C@@H](CC(N)=O)C(=O)NCCCC[C@H](NC(=O)[C@H](CC(N)=O)NC(=O)[C@H](Cc1c[nH]c2ccccc12)NC(=O)[C@@H](NC(=O)[C@H](Cc1ccc(O)cc1)NC(=O)[C@H](Cc1ccc(O)cc1)NC(=O)[C@H](CO)NC(=O)[C@H](CCCNC(=N)N)NC(=O)[C@H](Cc1c[nH]cn1)NC(=O)[C@@H](N)Cc1c[nH]c2ccccc12)[C@@H](C)O)C(N)=O |  | human serum albumin |  | 0.07
Cn1cc(Nc2ncnc3ccc(-c4cccc(N5CCOCC5)c4)cc23)cn1 |  | human plasma |  | 0.0096

Compound | assay | test system | setting | fraction unbound
CC(=O)CC(c1ccccc1)c1c(O)c2ccccc2oc1=O (stereo not drawn) | rapid equilibrium dialysis | human plasma | 2 µM, 6 h, pH 7.4 | 0.0068
NC/C(=C\F)COc1cccc(Cn2c(=S)[nH]c(=O)c3[nH]cnc32)c1 |  | human plasma | 10 µM, 5 (unit not given) | 0.27
C=CC(=O)Nc1cc(Nc2ncc(C(=O)OC(C)C)c(-c3cn(C)c4ccccc34)n2)c(OC)cc1N(C)CCN(C)C | equilibrium dialysis | rat plasma | 5 µM, 18 h, pH 7.4 | 0.32 ± 0.04
CCCC[C@@H]1NC(=O)[C@H](Cc2ccc(O)cc2)NC(=O)[C@@H]2CCCN2C(=O)[C@H](CC(=O)O)NC(=O)[C@H](C)NC(=O)[C@H](Cc2ccccc2)NC(=O)[C@@H]2CSCCC(=O)N3CN(CN(C3)C(=O)CCSC[C@@H](C(=O)N[C@@H](C)C(N)=O)NC1=O)C(=O)CCSC[C@H](NC(C)=O)C(=O)N[C@@H](CC(C)(C)C)C(=O)N1CCC[C@H]1C(=O)N[C@@H](CCC(=O)O)C(=O)N[C@H](CCCCNC(=O)CCc1cn(CCOCCOCCOCCOCCOCCOCCOCCOCCOCCOCCNC(=O)CCOCCN(CCOCCC(=O)NCCOCCOCCOCCOCCOCCOCCOCCOCCOCCOCCn3cc(CCC(=O)NCCCC[C@H]4NC(=O)[C@H](CCC(=O)O)NC(=O)[C@@H]5CCCN5C(=O)[C@H](CC(C)(C)C)NC(=O)[C@@H](NC(C)=O)CSCCC(=O)N5CN6CN(C5)C(=O)CCSC[C@H](NC(=O)[C@H](Cc5ccc(O)cc5)NC(=O)[C@@H]5CCCN5C4=O)C(=O)N[C@@H](Cc4ccccc4)C(=O)N[C@@H](C)C(=O)N[C@@H](CC(=O)O)C(=O)N4CCC[C@H]4C(=O)N[C@@H](Cc4ccc(O)cc4)C(=O)N[C@@H](CCCC)C(=O)N[C@H](C(=O)N[C@@H](C)C(N)=O)CSCCC6=O)nn3)CCOCCC(=O)NCCOCCOCCOCCOCCOCCOCCOCCOCCOCCOCCn3cc(CCC(=O)N[C@H]4CSCCC(=O)N5CN6CN(C5)C(=O)CCSC[C@H](NC(=O)[C@@H](CC(=O)O)NC(=O)[C@H](Cc5cccc7ccccc57)NC(=O)[C@@H]5CCCN5C4=O)C(=O)N[C@@H](CCSC)C(=O)N[C@@H](CCCCNC(=N)N)C(=O)N[C@@H](CC(=O)O)C(=O)N[C@@H](Cc4c[nH]c5ccccc45)C(=O)N[C@@H](CO)C(=O)N[C@@H]([C@@H](C)O)C(=O)N4CCC[C@H]4C(=O)N4C[C@H](O)C[C@H]4C(=O)N[C@@H](Cc4c[nH]c5ccccc45)C(=O)N[C@H](C(N)=O)CSCCC6=O)nn3)nn1)C(=O)N1CCC[C@H]1C(=O)N[C@@H](Cc1ccc(O)cc1)C(=O)N2 | ultracentrifugation | rat plasma |  | 0.24
COCCc1ccc(OCC(O)CNC(C)C)cc1 (stereo not drawn) | rapid equilibrium dialysis | rat plasma | 2 µM, 6 h, pH 7.4 | 0.815
COc1ccccc1Oc1c(NS(=O)(=O)c2ccc(C(C)(C)C)cc2)nc(-c2ncccn2)nc1OCCO |  | plasma |  | 0.029
Cc1nn(C)cc1S(=O)(=O)NC(=O)c1ccc(-n2ccc(OCC(C)(C)C(F)(F)F)n2)nc1N1C[C@@H](C)CC1(C)C | rapid equilibrium dialysis | human, plasma | 6 h post-dose | 0.004
Nc1nnc(-c2cccc(Cl)c2Cl)c(N)n1 |  | mouse brain |  | 0.162
N#Cc1ccc(-c2cc(=O)c3ccc4[nH]c(C(F)(F)F)nc4c3o2)cc1 |  | plasma |  | 0.1%
Cc1cnnc(Nc2ccnc3ccc(-c4ccc(S(=O)(=O)N5CCOCC5)cc4)cc23)c1 |  | human plasma |  | 0.05
CN1CCN(c2cccc(-c3ccc4ncnc(Nc5ccc([N+](=O)[O-])c(C(F)(F)F)c5)c4c3)c2)CC1 |  | human plasma |  | < 0.0027
CCCCC1=NC2(CCCC2)C(=O)N1Cc1ccc(-c2ccccc2S(=O)(=O)Nc2noc(C)c2C)c(COCC)c1 |  | plasma |  | 0.009
C[C@@H](N)COc1ccc(-c2cnc3ccc(N[C@H](C)c4cccc(F)c4)nn23)cc1 | equilibrium dialysis | cell medium with 10% FBS |  | 0.62
Nc1ccc(S(=O)(=O)c2ccc(N)cc2)cc1 | equilibrium dialysis | human plasma |  | 0.381
C[C@H]1CN(c2cccc(-c3ccc4ncnc(Nc5ncco5)c4c3)c2)CCO1 |  | human plasma |  | < 0.0033
CC(=O)Nc1nnc(N2CCN([C@@H](C)c3ccc4c(c3)OCO4)CC2)s1 |  | mouse plasma | 1 µM | 0.115
COc1cc2c3c(n(CCCN4CCOCC4)c(=O)c2cc1OC)-c1cc2c(cc1C3=O)OCO2 | equilibrium dialysis | culture medium, 10% FBS | 10760 ng/mL, 24 h | 0.015
CC(C)NCC(O)COc1cccc2ccccc12 (stereo not drawn) | equilibrium dialysis | human plasma |  | 0.169
